# Published values gathered from unrelated publications.
# Lines come from different studies, so protocols differ.
Molecule,tested on,assay,system,conditions,how to read,quantity,result
YLTNDVSFLA,,AIM,"peptide, CD8+ T cells from PBMC, human donors","HLA-A*02:01 restricted, unit not given",reference: positive over tested donors,frequency of responding donors,100
Nc1ncnc2c([C@@H]3N[C@H](CO)[C@@H](O)[C@H]3O)c[nH]c12,Marburg marburgvirus,virus production,"HeLa, Musoke",100 µM,,inhibition,100%
CC[C@H](C)[C@H](NC(=O)[C@H](CC(C)C)NC(=O)[C@H](Cc1c[nH]c2ccccc12)NC(=O)[C@H](CCC(N)=O)NC(=O)[C@@H](NC(=O)[C@H](Cc1ccccc1)NC(=O)[C@H](C)NC(=O)[C@H](CCCCNC(=O)COCCOCCNC(=O)COCCOCCNC(=O)CC[C@H](NC(=O)CCCCCCCCCCCCCCCCCCC(=O)O)C(=O)O)NC(=O)[C@H](CCC(N)=O)NC(=O)[C@H](C)NC(=O)[C@@H](NC(=O)[C@H](CCCCN)NC(=O)[C@H](CC(=O)O)NC(=O)[C@H](CC(C)C)NC(=O)C(C)(C)NC(=O)[C@@H](NC(=O)[C@H](CO)NC(=O)[C@H](Cc1ccc(O)cc1)NC(=O)[C@H](CC(=O)O)NC(=O)[C@H](CO)NC(=O)[C@@H](NC(=O)[C@H](Cc1ccccc1)NC(=O)[C@@H](NC(=O)CNC(=O)[C@H](CCC(=O)O)NC(=O)C(C)(C)NC(=O)[C@@H](N)Cc1ccc(O)cc1)[C@@H](C)O)[C@@H](C)O)[C@@H](C)CC)[C@@H](C)CC)C(C)C)C(=O)N[C@@H](C)C(=O)NCC(=O)NCC(=O)N1CCC[C@H]1C(=O)N[C@@H](CO)C(=O)N[C@@H](CO)C(=O)NCC(=O)N[C@@H](C)C(=O)N1CCC[C@H]1C(=O)N1CCC[C@H]1C(=O)N1CCC[C@H]1C(=O)N[C@@H](CO)C(N)=O,,,healthy subjects,"4.5 mg, day 29, multiple ascending dose, LS mean",reference: baseline,pulse rate change,4.95 bpm
CVADYSVLYNSASFS,human CD4 T cells,AIM,peptide,,,responding donors,8%
Cc1cc2ncc(C(=O)NCC(C)(C)NCC(=O)N3CCC[C@H]3C#N)cn2n1,"Replicase polyprotein 1ab, main protease (rep, Severe acute respiratory syndrome coronavirus 2, UniProt P0DTD1)","reporter gene (mKate2), inhibitor",,20 µM,,inhibition,-0.172%

# For quick reference, copied from above:
Molecule,tested on,assay,system,conditions,how to read,quantity,result
Cc1cc2ncc(C(=O)NCC(C)(C)NCC(=O)N3CCC[C@H]3C#N)cn2n1,"Replicase polyprotein 1ab, main protease (rep, Severe acute respiratory syndrome coronavirus 2, UniProt P0DTD1)","reporter gene (mKate2), inhibitor",,20 µM,,inhibition,-0.172%
